Assay results pooled from the literature.
rep main protease: Replicase polyprotein 1ab, main protease (rep, Severe acute respiratory syndrome coronavirus 2, UniProt P0DTD1)

Nc1ncnc2c([C@@H]3N[C@H](CO)[C@@H](O)[C@H]3O)c[nH]c12  infected cells (Marburg virus; viral replication, antibody staining; HeLa, Musoke; 12.5 µM, 1 h): 0.8%
SIVAGGIVAIVVTCL  responding donors (human CD4 T cells; AIM; peptide): 9%
NC(=S)N/N=C(/c1cccc(O)c1)c1cccc(Br)c1  inhibition (rep main protease; viral replication, Gluc reporter; SARS-CoV-2; 20 µM): 0.528%
CC[C@H](C)[C@H](NC(=O)[C@H](CC(C)C)NC(=O)[C@H](Cc1c[nH]c2ccccc12)NC(=O)[C@H](CCC(N)=O)NC(=O)[C@@H](NC(=O)[C@H](Cc1ccccc1)NC(=O)[C@H](C)NC(=O)[C@H](CCCCNC(=O)COCCOCCNC(=O)COCCOCCNC(=O)CC[C@H](NC(=O)CCCCCCCCCCCCCCCCCCC(=O)O)C(=O)O)NC(=O)[C@H](CCC(N)=O)NC(=O)[C@H](C)NC(=O)[C@@H](NC(=O)[C@H](CCCCN)NC(=O)[C@H](CC(=O)O)NC(=O)[C@H](CC(C)C)NC(=O)C(C)(C)NC(=O)[C@@H](NC(=O)[C@H](CO)NC(=O)[C@H](Cc1ccc(O)cc1)NC(=O)[C@H](CC(=O)O)NC(=O)[C@H](CO)NC(=O)[C@@H](NC(=O)[C@H](Cc1ccccc1)NC(=O)[C@@H](NC(=O)CNC(=O)[C@H](CCC(=O)O)NC(=O)C(C)(C)NC(=O)[C@@H](N)Cc1ccc(O)cc1)[C@@H](C)O)[C@@H](C)O)[C@@H](C)CC)[C@@H](C)CC)C(C)C)C(=O)N[C@@H](C)C(=O)NCC(=O)NCC(=O)N1CCC[C@H]1C(=O)N[C@@H](CO)C(=O)N[C@@H](CO)C(=O)NCC(=O)N[C@@H](C)C(=O)N1CCC[C@H]1C(=O)N1CCC[C@H]1C(=O)N1CCC[C@H]1C(=O)N[C@@H](CO)C(N)=O  half-life (human type 2 diabetes patients, plasma; 5 mg, day 22): 114 h
C[C@@H]1CC[C@]2(C(=O)O)CC[C@]3(C)C(=CC[C@@H]4[C@@]5(C)CC[C@H](O)C(C)(C)[C@@H]5CC[C@]43C)[C@@H]2[C@]1(C)O  inhibition (rep main protease; reporter gene (Gaussia luciferase), inhibitor; 20 µM): -1.88%
TSNQVAVLY  frequency of responding donors (AIM; peptide, CD8+ T cells from PBMC, human donors; reference: positive over tested donors): 25%

A few entries again:
TSNQVAVLY  frequency of responding donors (AIM; peptide, CD8+ T cells from PBMC, human donors; reference: positive over tested donors): 25%
